Published values pooled from the literature.
A part holds a random share of what one study measured. “And” joins repeats or separate records; there may be more than shown.
Chain of UniProt Q96SW2 (whole entry, looked up): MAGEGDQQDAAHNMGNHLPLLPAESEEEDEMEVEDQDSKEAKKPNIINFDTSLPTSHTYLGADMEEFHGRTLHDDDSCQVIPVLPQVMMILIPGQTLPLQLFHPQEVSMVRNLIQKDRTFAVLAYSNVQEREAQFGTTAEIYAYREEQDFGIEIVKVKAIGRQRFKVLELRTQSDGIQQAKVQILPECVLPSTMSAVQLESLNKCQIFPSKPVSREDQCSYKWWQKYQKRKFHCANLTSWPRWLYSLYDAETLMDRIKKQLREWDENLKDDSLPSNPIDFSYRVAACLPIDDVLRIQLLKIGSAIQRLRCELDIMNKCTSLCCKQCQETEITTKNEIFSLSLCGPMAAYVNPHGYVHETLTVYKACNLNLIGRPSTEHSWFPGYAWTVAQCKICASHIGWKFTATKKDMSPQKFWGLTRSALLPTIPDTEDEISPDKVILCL
Chain of UniProt Q16539 (whole entry, looked up): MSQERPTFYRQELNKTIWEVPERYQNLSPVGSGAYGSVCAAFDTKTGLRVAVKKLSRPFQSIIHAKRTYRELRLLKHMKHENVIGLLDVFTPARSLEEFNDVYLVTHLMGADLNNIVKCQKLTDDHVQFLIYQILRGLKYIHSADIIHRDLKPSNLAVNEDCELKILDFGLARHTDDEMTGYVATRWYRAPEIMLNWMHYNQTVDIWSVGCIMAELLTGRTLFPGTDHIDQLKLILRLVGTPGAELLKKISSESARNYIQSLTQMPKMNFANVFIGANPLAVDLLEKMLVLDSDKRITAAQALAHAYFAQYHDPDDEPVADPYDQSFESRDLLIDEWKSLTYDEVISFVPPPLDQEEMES
Chain of UniProt Q8NG66 (whole entry, looked up): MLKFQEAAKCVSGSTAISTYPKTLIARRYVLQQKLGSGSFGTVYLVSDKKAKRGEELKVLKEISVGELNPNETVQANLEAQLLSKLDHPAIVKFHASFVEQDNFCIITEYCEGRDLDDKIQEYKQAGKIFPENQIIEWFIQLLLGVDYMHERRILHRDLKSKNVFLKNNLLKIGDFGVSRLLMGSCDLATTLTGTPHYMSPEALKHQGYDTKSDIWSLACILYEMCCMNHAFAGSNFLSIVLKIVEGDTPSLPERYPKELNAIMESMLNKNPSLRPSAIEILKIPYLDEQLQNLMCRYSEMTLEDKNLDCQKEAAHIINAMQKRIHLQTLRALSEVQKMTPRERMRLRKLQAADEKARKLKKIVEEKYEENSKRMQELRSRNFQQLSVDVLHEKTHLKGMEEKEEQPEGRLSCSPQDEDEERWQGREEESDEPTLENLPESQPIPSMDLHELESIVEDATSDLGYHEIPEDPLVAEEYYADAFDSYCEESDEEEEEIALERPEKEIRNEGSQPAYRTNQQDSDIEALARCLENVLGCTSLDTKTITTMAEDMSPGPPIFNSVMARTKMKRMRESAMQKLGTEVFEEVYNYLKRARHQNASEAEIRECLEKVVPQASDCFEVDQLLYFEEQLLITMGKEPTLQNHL
Chain of UniProt P31749 (whole entry, looked up): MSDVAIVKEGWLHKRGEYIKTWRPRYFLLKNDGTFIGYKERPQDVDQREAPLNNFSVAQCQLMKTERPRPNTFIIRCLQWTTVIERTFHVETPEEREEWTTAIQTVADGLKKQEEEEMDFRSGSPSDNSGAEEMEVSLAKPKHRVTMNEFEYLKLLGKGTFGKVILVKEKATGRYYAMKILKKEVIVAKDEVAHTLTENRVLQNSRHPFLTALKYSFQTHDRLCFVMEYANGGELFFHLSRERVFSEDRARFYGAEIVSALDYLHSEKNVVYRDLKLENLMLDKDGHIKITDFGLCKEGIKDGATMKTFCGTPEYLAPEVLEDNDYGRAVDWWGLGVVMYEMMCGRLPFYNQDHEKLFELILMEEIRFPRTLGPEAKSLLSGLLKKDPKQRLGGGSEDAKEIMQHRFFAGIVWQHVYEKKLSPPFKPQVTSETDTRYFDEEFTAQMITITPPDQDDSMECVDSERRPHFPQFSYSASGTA
Chain of UniProt P00519 (whole entry, looked up): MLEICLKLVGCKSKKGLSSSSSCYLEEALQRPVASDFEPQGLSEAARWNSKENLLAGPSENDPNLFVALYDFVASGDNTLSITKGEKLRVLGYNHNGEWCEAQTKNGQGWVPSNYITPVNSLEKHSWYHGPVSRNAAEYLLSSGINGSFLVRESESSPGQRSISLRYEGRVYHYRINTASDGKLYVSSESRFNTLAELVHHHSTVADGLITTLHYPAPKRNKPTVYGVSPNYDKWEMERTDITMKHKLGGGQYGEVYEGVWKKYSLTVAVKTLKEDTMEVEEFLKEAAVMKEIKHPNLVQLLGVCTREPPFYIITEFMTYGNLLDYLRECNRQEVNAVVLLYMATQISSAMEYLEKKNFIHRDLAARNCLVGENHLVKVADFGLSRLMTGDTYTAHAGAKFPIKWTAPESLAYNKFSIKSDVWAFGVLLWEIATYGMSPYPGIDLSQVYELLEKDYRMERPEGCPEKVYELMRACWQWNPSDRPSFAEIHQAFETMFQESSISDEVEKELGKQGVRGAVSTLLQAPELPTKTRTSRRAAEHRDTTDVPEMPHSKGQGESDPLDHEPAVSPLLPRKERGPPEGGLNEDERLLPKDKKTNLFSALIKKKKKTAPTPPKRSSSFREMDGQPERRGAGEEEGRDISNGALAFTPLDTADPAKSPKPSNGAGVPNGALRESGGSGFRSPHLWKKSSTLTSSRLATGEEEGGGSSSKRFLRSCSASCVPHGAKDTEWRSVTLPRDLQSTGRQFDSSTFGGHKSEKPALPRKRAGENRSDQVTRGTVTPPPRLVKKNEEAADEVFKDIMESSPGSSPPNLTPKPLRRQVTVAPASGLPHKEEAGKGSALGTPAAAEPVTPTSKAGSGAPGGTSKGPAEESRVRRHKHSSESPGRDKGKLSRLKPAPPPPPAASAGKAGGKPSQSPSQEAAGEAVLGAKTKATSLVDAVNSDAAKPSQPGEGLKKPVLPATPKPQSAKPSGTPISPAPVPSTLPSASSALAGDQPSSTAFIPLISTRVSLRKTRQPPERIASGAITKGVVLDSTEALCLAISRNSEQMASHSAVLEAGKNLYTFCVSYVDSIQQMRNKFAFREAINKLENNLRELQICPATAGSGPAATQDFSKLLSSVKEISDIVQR
Chain of UniProt P10275 (whole entry, looked up): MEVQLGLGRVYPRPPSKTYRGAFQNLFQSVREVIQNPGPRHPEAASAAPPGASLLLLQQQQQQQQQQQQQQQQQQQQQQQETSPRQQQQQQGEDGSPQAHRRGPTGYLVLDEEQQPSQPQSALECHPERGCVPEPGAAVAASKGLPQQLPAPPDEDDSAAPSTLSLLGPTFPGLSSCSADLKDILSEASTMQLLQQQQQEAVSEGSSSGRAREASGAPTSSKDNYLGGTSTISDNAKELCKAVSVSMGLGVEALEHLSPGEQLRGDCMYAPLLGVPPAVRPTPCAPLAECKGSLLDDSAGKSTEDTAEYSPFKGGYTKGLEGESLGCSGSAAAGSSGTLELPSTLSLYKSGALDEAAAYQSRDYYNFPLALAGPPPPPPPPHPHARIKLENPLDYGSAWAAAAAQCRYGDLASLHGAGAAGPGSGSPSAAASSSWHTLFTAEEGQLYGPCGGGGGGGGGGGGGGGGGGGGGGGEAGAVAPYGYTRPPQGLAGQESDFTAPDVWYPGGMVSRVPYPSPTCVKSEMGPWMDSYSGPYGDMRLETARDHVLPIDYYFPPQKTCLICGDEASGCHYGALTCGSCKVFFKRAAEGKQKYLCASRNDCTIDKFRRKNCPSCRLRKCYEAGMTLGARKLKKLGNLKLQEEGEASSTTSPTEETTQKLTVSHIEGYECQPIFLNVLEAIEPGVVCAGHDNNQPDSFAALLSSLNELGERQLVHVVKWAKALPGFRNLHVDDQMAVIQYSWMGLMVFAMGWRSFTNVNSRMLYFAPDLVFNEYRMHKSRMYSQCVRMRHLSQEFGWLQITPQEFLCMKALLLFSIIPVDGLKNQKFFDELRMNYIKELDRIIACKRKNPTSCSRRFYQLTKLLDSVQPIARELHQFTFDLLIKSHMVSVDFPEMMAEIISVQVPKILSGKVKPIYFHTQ
Chain of UniProt Q9UKS7 (whole entry, looked up): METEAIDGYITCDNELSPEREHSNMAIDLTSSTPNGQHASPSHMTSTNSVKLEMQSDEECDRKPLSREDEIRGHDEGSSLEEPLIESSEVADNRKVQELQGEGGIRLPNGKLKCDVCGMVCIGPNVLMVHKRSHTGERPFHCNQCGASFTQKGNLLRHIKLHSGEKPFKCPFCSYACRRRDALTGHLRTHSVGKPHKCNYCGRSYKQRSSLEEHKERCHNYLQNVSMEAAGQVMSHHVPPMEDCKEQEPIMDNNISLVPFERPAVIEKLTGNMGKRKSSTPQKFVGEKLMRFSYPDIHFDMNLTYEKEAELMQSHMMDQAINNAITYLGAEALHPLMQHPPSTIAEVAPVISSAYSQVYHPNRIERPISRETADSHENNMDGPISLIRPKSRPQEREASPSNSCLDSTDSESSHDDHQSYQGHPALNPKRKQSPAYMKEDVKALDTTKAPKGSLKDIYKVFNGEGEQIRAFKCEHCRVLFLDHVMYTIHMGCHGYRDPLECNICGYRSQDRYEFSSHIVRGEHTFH
Chain of UniProt P11309 (whole entry, looked up): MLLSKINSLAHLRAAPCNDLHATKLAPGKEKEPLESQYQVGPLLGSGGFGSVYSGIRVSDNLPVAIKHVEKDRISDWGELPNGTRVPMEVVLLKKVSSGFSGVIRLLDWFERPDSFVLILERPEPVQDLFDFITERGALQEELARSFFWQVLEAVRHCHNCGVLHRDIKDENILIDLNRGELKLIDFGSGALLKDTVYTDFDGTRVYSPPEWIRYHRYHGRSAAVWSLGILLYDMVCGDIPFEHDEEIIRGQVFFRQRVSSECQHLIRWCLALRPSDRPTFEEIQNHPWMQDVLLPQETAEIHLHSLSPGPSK

Study 1
Compound: COC(=O)c1cc(N(C)C(=O)c2ccn3ncc(-c4ccc(C(=O)O)cc4)c3c2)ccc1Cl
The IC50 was greater than 30 µM (ABL1 (Homo sapiens, UniProt P00519); enzyme activity, inhibitor).
It gave greater than 30 µM for IC50 (CAMK1 (Homo sapiens, UniProt Q14012); enzyme activity, inhibitor).
NEK11 (Homo sapiens, UniProt Q8NG66); enzyme activity, inhibitor — IC50: greater than 30 µM.
For MAPK14 (Homo sapiens, UniProt Q16539); enzyme activity, inhibitor: IC50 read greater than 30 µM.
It gave greater than 30 µM for IC50 (FGFR2 (Homo sapiens, UniProt P21802); enzyme activity, inhibitor).
The IC50 was greater than 30 µM (MAP2K3 (Homo sapiens, UniProt P46734); enzyme activity, inhibitor).
AKT1 (Homo sapiens, UniProt P31749); enzyme activity, inhibitor — IC50: greater than 30 µM.
It gave greater than 30 µM for IC50 (Androgen receptor (AR, Homo sapiens, UniProt P10275); cell-free assay).
For JAK1 (Homo sapiens, UniProt P23458); enzyme activity, inhibitor: IC50 read greater than 30 µM.

Study 2 — SMILES: COc1ccc2c(c1)/C(=C/c1cnc[nH]1)C(=O)N2; read-out: enzyme activity; mode: inhibitor; tested at: 0.5 µM; reference: control
It gave 90.8% for remaining activity (PIM1 (Homo sapiens, UniProt P11309)).
DYRK1A (Homo sapiens, UniProt Q13627) — remaining activity: 70.4%.
RPS6KB2 (Homo sapiens, UniProt Q9UBS0) — remaining activity: 98.7%.

Further values, each from its own experiment
With `CO[C@@H]1[C@@H](OC(N)=O)[C@@H](O)[C@H](Oc2ccc3c(O)c(NC(=O)c4ccc(O)c(CC=C(C)C)c4)c(=O)oc3c2C)OC1(C)C` the survival time was 21 days and 47 days and 29 days and 14 days and 38 days and 11 days and 34 days (FVB/129P2 mice, Brca1-/- TNBC; dose not given).
`Cc1ccc(/N=C/N(C)/C=N/c2ccc(C)cc2C)c(C)c1` gave a viability of 33.4% (A-375; 100 µM, 36 h).
`C[C@H]1CCC2N(C1)C[C@H]1C3CC4[C@@H](CC(=O)C5C[C@@H](O)CC[C@@]54C)C3CCC1[C@]2(C)O` (stereo partly shown) gave an inhibition of -45% (CAMK2A (Homo sapiens, UniProt Q9UQM7); enzyme activity, inhibitor; 10 µM).
The remaining activity of `CNCC[C@H](Oc1cccc2ccccc12)c1cccs1` is reported as 51.9% (Plasmodium berghei; liver stage infection; Huh-7; 10 µM, 24 h, GFP-expressing sporozoites).
For `C[N+]12CCC(CC1)C(OC(=O)C(O)(c1ccccc1)c1ccccc1)C2` (stereo not shown), the viability was 117% (A-375; 100 µM, 36 h).
`O=C1CCC(N2Cc3c(ccc4c3OCC43CCCN(Cc4ccccc4)CC3)C2=O)C(=O)N1` (stereo not shown) gave a protein remaining of 104% (CRBN/Zinc finger protein Helios (Homo sapiens, UniProt Q96SW2+Q9UKS7); degrader, HiBiT; HEK293; 0.1694 nM).
For `CN(C)C1C(=O)C(C(N)=O)=C(O)C2(O)C(=O)C3=C(O)c4c(O)cccc4C(C)(O)C3CC12` (stereo not shown), “nuclear SOX9 intensity” read 101 % of DMSO (mouse MPNST tumor cells; high-content immunofluorescence imaging, item: nuclear SOX9; 10 µM, 12 h, mean of 2 replicates; reference: DMSO control, higher = more nuclear SOX9).

A few entries again (study 1):
AKT1 (Homo sapiens, UniProt P31749); enzyme activity, inhibitor — IC50: greater than 30 µM.
It gave greater than 30 µM for IC50 (Androgen receptor (AR, Homo sapiens, UniProt P10275); cell-free assay).
